Results pooled from the literature.
Lines come from different studies, so protocols differ. pEC50, pIC50, pKd: −log10 of the molar value.
Chain of UniProt Q70CQ1 (whole entry, looked up): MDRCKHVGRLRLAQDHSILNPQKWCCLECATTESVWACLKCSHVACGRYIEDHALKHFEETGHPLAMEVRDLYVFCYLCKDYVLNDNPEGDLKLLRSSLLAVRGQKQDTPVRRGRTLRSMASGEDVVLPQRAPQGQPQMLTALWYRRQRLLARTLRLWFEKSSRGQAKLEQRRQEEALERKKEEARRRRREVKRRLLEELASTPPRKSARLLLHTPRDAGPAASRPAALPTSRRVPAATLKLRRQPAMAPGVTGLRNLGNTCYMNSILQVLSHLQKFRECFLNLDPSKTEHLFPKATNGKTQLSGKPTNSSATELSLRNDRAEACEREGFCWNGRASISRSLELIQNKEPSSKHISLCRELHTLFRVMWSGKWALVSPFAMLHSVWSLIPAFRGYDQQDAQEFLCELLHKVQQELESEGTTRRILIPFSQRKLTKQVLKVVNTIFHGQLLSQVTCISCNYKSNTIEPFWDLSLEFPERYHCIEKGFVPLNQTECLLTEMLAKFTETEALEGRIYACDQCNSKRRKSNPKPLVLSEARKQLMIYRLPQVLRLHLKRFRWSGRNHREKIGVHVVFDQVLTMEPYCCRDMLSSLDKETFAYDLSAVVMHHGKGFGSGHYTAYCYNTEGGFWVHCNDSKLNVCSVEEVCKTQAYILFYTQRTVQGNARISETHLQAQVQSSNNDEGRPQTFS
Chain of UniProt Q9Y2K6 (whole entry, looked up): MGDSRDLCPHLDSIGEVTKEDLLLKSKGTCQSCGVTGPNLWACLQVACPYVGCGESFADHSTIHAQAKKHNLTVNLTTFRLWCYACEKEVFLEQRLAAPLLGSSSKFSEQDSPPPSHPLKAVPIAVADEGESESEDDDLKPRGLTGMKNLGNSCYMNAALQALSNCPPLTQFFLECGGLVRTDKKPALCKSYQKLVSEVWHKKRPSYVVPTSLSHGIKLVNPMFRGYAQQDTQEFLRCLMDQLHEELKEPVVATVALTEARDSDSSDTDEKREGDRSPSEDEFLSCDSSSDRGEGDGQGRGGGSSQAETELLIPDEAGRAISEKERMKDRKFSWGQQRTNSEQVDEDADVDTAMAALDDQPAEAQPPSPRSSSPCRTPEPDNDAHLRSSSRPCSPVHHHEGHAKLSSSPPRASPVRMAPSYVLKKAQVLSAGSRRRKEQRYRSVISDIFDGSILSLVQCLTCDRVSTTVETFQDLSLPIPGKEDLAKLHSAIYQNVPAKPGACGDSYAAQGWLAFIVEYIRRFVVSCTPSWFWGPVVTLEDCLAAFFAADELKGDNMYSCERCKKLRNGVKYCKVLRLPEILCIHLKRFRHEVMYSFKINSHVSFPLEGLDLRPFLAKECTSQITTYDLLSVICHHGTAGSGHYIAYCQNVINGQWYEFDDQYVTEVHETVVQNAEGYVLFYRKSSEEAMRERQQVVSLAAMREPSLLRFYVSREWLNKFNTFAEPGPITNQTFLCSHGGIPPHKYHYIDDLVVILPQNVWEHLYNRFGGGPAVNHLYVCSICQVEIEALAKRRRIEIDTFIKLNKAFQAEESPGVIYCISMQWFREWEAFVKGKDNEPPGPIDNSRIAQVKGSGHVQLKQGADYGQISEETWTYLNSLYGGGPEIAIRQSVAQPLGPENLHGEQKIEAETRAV

Cn1cc(-c2ccc(-c3cncc(Cl)c3N3CCC4(CCNC4=O)CC3)cc2)cn1  log2 fold change (COLO 205; gene expression, microarray, measured: ACTA2 mRNA; concentration not given, 2 h; relative to: untreated cells): 2.36
O=C(O)CNC(=O)c1ccc(S(=O)(=O)N2CCC(n3c(=O)oc4ccccc43)CC2)cc1  pKd (Ubiquitin carboxyl-terminal hydrolase 49, ZnF-UBD domain (USP49, Homo sapiens, UniProt Q70CQ1)): < 3.00
COc1cc2c(N3CCN(C(=O)Nc4ccc(OC(C)C)cc4)CC3)ncnc2cc1OCCCN1CCCCC1  inhibition (NLRP3 inflammasome (mouse); mouse BMDM; 10 µM): 21.3%
CNC(=O)c1cc(Oc2ccc(NC(=O)Nc3ccc(Cl)c(C(F)(F)F)c3)cc2)ccn1  beat rate (iCell Cardiomyocytes (hiPSC-derived); xCELLigence Cardio impedance; concentration not given, 2 h; relative to: control): 95.2%
CCn1cc(-c2cc(Cn3ccnc3)cc3c2CCN([C@H](c2cc(OC)ccn2)C2CC2)C3=O)c(C(F)(F)F)n1  pEC50 (OVTOKO; cell growth, inhibitor; 120 h): 5.78
CC(C)(C)c1cc(NC(=O)Nc2ccc(-c3cn4c(n3)sc3cc(OCCN5CCOCC5)ccc34)cc2)no1  cell index (iCell Cardiomyocytes (hiPSC-derived); cellular impedance; concentration not given, 24 h; relative to: control): 99.3%
Cc1cccc(C)c1N(CC(=O)Nc1ccc(-c2ncon2)cc1)C(=O)C1CCS(=O)(=O)CC1  pIC50 (human alphaherpesvirus 1; viral replication, GFP signal; K26 GFP, 3D skin equivalent, air-liquid; 48 h): 6.82
CCCCCCCCCC(=O)O  z-scored log2 fold change (binding, equilibrium dialysis LC-MS; 5 µM, thermostabilized A2AR-BRIL construct; relative to: no-protein control, direction not given): 1.42
OC(CCN1CCCCC1)(c1ccccc1)C1CC2C=CC1C2 (stereo not shown)  EEG Beta3-power Pz-O1 (resting-state EEG; healthy elderly humans; oral, 2 mg, eyes closed, LS mean): 2.2 µV²
Cc1ncc(CO)c(C(=O)O)c1O  z-scored log2 fold change (binding, equilibrium dialysis LC-MS; 5 µM, thermostabilized A2AR-BRIL construct; relative to: no-protein control, direction not given): 0.359
Cc1[nH]c(/C=C2\C(=O)Nc3ccc(F)cc32)c(C)c1C(=O)NCCN1CCCC1  inhibition (NLRP3 inflammasome (mouse); mouse BMDM; 10 µM): 92.6%
O=C(O)Cc1nc2ccccc2[nH]1  pKd (Ubiquitin carboxyl-terminal hydrolase 20, ZnF-UBD domain (USP20, Homo sapiens, UniProt Q9Y2K6)): < 3.00
NCC(=O)O  z-scored log2 fold change (binding, equilibrium dialysis LC-MS; 5 µM, thermostabilized A2AR-BRIL construct; relative to: no-protein control, direction not given): 0.0292
COc1ccc(Cl)c(Nc2nc3ccccc3nc2NS(=O)(=O)c2cccc(NC(=O)C(C)(C)N)c2)c1  inhibition (NLRP3 inflammasome (mouse); mouse BMDM; 10 µM): 57.8%
CCOc1cc2ncc(C#N)c(Nc3ccc(OCc4ccccn4)c(Cl)c3)c2cc1NC(=O)/C=C/CN(C)C  ATP level (iCell Cardiomyocytes (hiPSC-derived); CellTiter-Glo; concentration not given, 24 h; relative to: control): 92.9%
C[C@@H](O)C=O  z-scored log2 fold change (binding, equilibrium dialysis LC-MS; 5 µM, thermostabilized A2AR-BRIL construct; relative to: no-protein control, direction not given): 0.513
CC[C@H](Nc1ncnc2[nH]cnc12)c1nc2cccc(F)c2c(=O)n1-c1ccccc1  inhibition (NLRP3 inflammasome (mouse); mouse BMDM; 10 µM): 39.4%
Cc1cn([C@H]2C[C@H](O)[C@@H](COP(=O)(O)OP(=O)(O)OP(=O)(O)O)O2)c(=O)[nH]c1=O  z-scored log2 fold change (binding, equilibrium dialysis LC-MS; 5 µM, thermostabilized A2AR-BRIL construct; relative to: no-protein control, direction not given): -7.24
c1coc(-c2n[nH]cc2-c2ccnc3ccccc23)c1  log2 fold change (TOR1 (Candida albicans); kinase binding, MIB/MS competition; Candida albicans lysate; 10 µM; relative to: DMSO): -0.17
Cc1[nH]c(/C=C2\C(=O)Nc3ccccc32)c(C)c1CCC(=O)O  inhibition (NLRP3 inflammasome (mouse); mouse BMDM; 10 µM): 5.16%
CC(CN)C(=O)O (stereo not shown)  z-scored log2 fold change (binding, equilibrium dialysis LC-MS; 5 µM, thermostabilized A2AR-BRIL construct; relative to: no-protein control, direction not given): 0.292
C[C@H](Oc1ccc(Br)cc1-c1ccon1)C(=O)O  interstimulus interval at ESN (muscle velocity recovery cycles; human, tibialis anterior muscle; 200 mg once daily, multiple doses, multiple ascending dose; relative to: placebo): 0.446 ms

Some of these lines once more:
CC(CN)C(=O)O (stereo not shown)  z-scored log2 fold change (binding, equilibrium dialysis LC-MS; 5 µM, thermostabilized A2AR-BRIL construct; relative to: no-protein control, direction not given): 0.292
C[C@H](Oc1ccc(Br)cc1-c1ccon1)C(=O)O  interstimulus interval at ESN (muscle velocity recovery cycles; human, tibialis anterior muscle; 200 mg once daily, multiple doses, multiple ascending dose; relative to: placebo): 0.446 ms
